Experimental data from different studies.
Values joined by “and” are separate records of one study, mostly repeats; a detail may differ. ± gives the spread as reported.

| SMILES | test | system | conditions | quantity | result |
| --- | --- | --- | --- | --- | --- |
| CC(=O)Nc1ccc(C[C@H](NC(=O)[C@H](CO)NC(=O)[C@@H](Cc2cccnc2)NC(=O)[C@@H](Cc2ccc(Cl)cc2)NC(=O)[C@@H](Cc2ccc3ccccc3c2)NC(C)=O)C(=O)N[C@H](Cc2ccc(NC(C)=O)cc2)C(=O)N[C@@H](CC(C)C)C(=O)N[C@@H](CCCCNC(C)C)C(=O)N2CCC[C@H]2C(=O)N[C@H](C)C(N)=O)cc1 |  | healthy men, fasted, serum | oral, 40 mg single dose | terminal half-life | 10.7 ± 3.2 h |
| C=CC[C@@H]1/C=C(\C)C[C@H](C)C[C@H](OC)[C@H]2O[C@@](O)(C(=O)C(=O)N3CCCC[C@H]3C(=O)O[C@H](/C(C)=C/[C@@H]3CC[C@@H](O)[C@H](OC)C3)[C@H](C)[C@@H](O)CC1=O)[C@H](C)C[C@@H]2OC |  | healthy adults, whole blood | oral, geometric mean | terminal half-life | 33.3 h and 33.6 h |
| O=C(c1cccnc1-c1ccncc1)N1CCC(O)(Cc2ccccc2)CC1 |  | healthy Japanese adults, plasma | oral, 200 mg twice daily, day 14 | terminal elimination rate constant | 7.78e-05 s⁻¹ |
| COc1nnc2ccc(N3CCC(c4ccc(OCCN5CCN(C)C(=O)[C@H]5C)cc4)CC3)nn12 |  | patients, plasma | oral, 10 mg twice daily, multiple dose, monotherapy | terminal half-life | 2.39 h |
| C#C[C@]1(O)CC[C@H]2[C@@H]3CCC4=CC(=O)CC[C@@H]4[C@H]3CC[C@@]21C | radioimmunoassay | HIV-infected women on protease inhibitor therapy, serum | oral, 0.35 mg, geometric mean | terminal half-life | 22.5 h |
| CC[C@H](C)CCCCC(=O)N[C@@H](CCN)C(=O)N[C@H](C(=O)N[C@@H](CCN)C(=O)N[C@H]1CCNC(=O)[C@H]([C@@H](C)O)NC(=O)[C@H](CCN)NC(=O)[C@H](CCN)NC(=O)[C@H](CC(C)C)NC(=O)[C@@H](Cc2ccccc2)NC(=O)[C@H](CCN)NC1=O)[C@@H](C)O |  | mild renal insufficiency patients, plasma | IV infusion, 0.75 mg/kg, 1 h infusion, arithmetic mean | terminal elimination rate constant | 2.71e-05 s⁻¹ |
| CS(=O)(=O)c1ccc([C@@H](O)[C@@H](CF)NC(=O)C(Cl)Cl)cc1 |  | Arbor Acres chickens, plasma | oral, 20 mg/kg, with: quercetin 20 mg/kg pretreatment | terminal half-life | 2.25 ± 0.49 h |
| C=CC(=O)NC1CCN(c2ncc3ncnc(Nc4ccc(Oc5ccc6c(c5)ncn6C)c(C)c4)c3n2)CC1 |  | healthy male volunteers, plasma | oral, 60 mg, unlabelled tablet | terminal half-life | 45.2 h |

For quick reference, copied from above:
| SMILES | test | system | conditions | quantity | result |
| --- | --- | --- | --- | --- | --- |
| CC(=O)Nc1ccc(C[C@H](NC(=O)[C@H](CO)NC(=O)[C@@H](Cc2cccnc2)NC(=O)[C@@H](Cc2ccc(Cl)cc2)NC(=O)[C@@H](Cc2ccc3ccccc3c2)NC(C)=O)C(=O)N[C@H](Cc2ccc(NC(C)=O)cc2)C(=O)N[C@@H](CC(C)C)C(=O)N[C@@H](CCCCNC(C)C)C(=O)N2CCC[C@H]2C(=O)N[C@H](C)C(N)=O)cc1 |  | healthy men, fasted, serum | oral, 40 mg single dose | terminal half-life | 10.7 ± 3.2 h |
